Measurements collected from several papers.
Protocols differ between the studies behind these lines. Values joined by “and” are separate records of one study, mostly repeats; a detail may differ.
Cell line: MDA-MB-231

Clc1ccc(C(Cn2ccnc2)OCc2ccc(Br)cc2)c(Cl)c1 (centres unmarked)  IC50 (cell growth or viability, MTT; 24 h): 49.6 µM
O=C1C(Cl)=C(NCCN2CCOCC2)C(=O)c2ncccc21  IC50 (cell growth or viability, MTT; 48 h): 5.75 µM
CCCc1cc2cc(-n3c4c(c5ccccc53)C(=O)CC(C)(C)C4)cc(N3CCC(O)CC3)c2c(=O)[nH]1  IC50 (cell growth or viability, MTS): 8.63 µM
CCOC(=O)/C=C1\S/C(=N\N=C\c2cccc3cc4ccccc4nc23)N(c2cccc(OC)c2)C1=O  IC50 (cell growth or viability, MTT; 48 h): > 50 µM
O=C(c1ccncc1)N1CCN(CC(OCc2ccc3ccccc3c2)c2ccc(Cl)cc2Cl)CC1 (centres unmarked)  IC50 (cell growth or viability, MTT; 24 h): 37.2 µM
C[C@@H]1CC[C@@H]([C@@](O)(CNCc2ccc(F)cc2)COCc2ccc(F)cc2)[C@H](OCc2ccc(F)cc2)C1  IC50 (cell growth or viability, MTT; 72 h): 1.91 µM
CCCCCCCC(=O)Oc1c(C)c(OC)c2c(/C=C/c3ccccc3)c(CCCCCC)c(=O)oc2c1C  IC50 (cell growth or viability, SRB; 72 h): > 50 µM
C[C@@H]1CC[C@@H]([C@@](O)(CNCc2cccc(F)c2)COCc2ccccc2)[C@H](OCc2ccccc2)C1  IC50 (cell growth or viability, MTT; 72 h): 4.17 µM
Cc1ccc([N+](=O)[O-])cc1S(=O)(=O)N(C)/N=C/c1cnc2ccc(Br)cn12  IC50 (cell growth or viability): 0.466 µM
O=C1C=CC2(Oc3cccc4cccc(c34)O2)C2=C1C(O)CCC2O (centres unmarked)  IC50 (cell growth or viability, resazurin; 72 h): 6.8 µM
Nc1ncc(-c2cc(-c3cnn(CC(F)(F)F)c3)ncc2F)nc1C(=O)NC1CNCC(F)C1 (centres unmarked)  IC50 (cell growth or viability, ATP luminescence; 72 h): 2.32 µM
CCCc1cc2cc(-n3nc(C)c4ncccc43)cc(N3CCC(O)CC3)c2c(=O)[nH]1  IC50 (cell growth or viability, MTS): 16 µM
CC[C@H](C)/C=C/C=C/C=C/C(O)=C/C(=O)C(F)(F)F  IC50 (cell growth, CellTiter-Glo): 30.7 µM and 22.7 µM
COC(=O)N1c2ccc3c(nc(Cc4ccccc4)n3[C@@H]3CCC[C@@H](C(=O)O)C3)c2CC[C@@H]1C  IC50 (cell growth or viability, ATP luminescence; 10 days): 2.16 µM
O=[N+]([O-])c1ccc(C=NNC(Nc2ccccc2)=[S+][Au-][Cl])o1  IC50 (cell growth or viability, resazurin): 68 µM
COc1ccc(N2C(=O)CS/C2=N\N=C\c2cccc3cc4ccccc4nc23)cc1  IC50 (cell growth or viability, MTT; 48 h): > 50 µM
Nc1ncnc2c1ncn2CCN1C(=O)/C(=N\N=C2/NC(=O)CS2)c2cc(F)ccc21  IC50 (cell growth or viability, SRB; 72 h): 84.5 µg/mL
CCCCCC(=O)Oc1c(C)c(OC)c2c(c1C)OC(=O)[C@@H](CCCC)[C@]2(O)/C=C/c1ccccc1 (relative stereo)  IC50 (cell growth or viability, SRB; 72 h): > 50 µM
O=C(c1ccc(Br)cc1)N1CCN(CC(OCc2ccc3ccccc3c2)c2ccc(Cl)cc2Cl)CC1 (centres unmarked)  IC50 (cell growth or viability, MTT; 24 h): 45.7 µM
CCCc1cc2cc(-n3nc(CO)c4c3CC(C)(C)CC4=O)cc(N3CCC(O)CC3)c2c(=O)[nH]1  IC50 (cell growth or viability, MTS): > 50 µM

Some of these lines once more:
C[C@@H]1CC[C@@H]([C@@](O)(CNCc2cccc(F)c2)COCc2ccccc2)[C@H](OCc2ccccc2)C1  IC50 (cell growth or viability, MTT; 72 h): 4.17 µM
COC(=O)N1c2ccc3c(nc(Cc4ccccc4)n3[C@@H]3CCC[C@@H](C(=O)O)C3)c2CC[C@@H]1C  IC50 (cell growth or viability, ATP luminescence; 10 days): 2.16 µM
